# Measured values gathered from unrelated publications.
# Parts stem from different laboratories: compare values within a part only.

# Set 1 — method: RNA Bind-n-Seq; molecule type: RNA; sample: in vitro; tested at: not given; relative to: input RNA pool; reading: higher = stronger binding
# Target: RING finger protein unkempt homolog, zinc fingers 1-6, GST-SBP tag (UNK, Homo sapiens, UniProt Q9C0B0, residues 30-357)
# Notes: RNA with constant flanks, human and mouse sites, ends assumed
# All sequences stand within: GGGAGUUCUACAGUCCGACGAUC … CAACAGAGGAUUGAGCAUCA
# Residues (chain): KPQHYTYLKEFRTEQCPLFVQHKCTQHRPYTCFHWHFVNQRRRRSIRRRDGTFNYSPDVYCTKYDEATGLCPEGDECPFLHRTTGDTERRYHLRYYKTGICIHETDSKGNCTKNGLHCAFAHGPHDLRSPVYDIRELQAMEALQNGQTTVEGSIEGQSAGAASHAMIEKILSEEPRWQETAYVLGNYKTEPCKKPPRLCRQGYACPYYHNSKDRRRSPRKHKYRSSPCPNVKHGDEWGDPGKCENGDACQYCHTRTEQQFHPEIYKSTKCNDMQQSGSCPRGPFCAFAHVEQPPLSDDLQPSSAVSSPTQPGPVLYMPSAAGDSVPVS
Strand,bound/input enrichment
GUCUGCAUUUAUCUUUCUUCCAAGUUUUUCUAAUUCUAAUGCUAUUUGUUAUAAUUUAGGUUUGGGAUAAAAAUAUGCUUUUGGAAGAUUUAAAAAGAAAAUUAAAACAGCUCUUCCUGA,1.14 ratio
ACGUGAUUUGGAGAGAGGUGUGGAAAUCUGUAUUGCAACACCUGGAAGACUGAUUGACUUUUUAGAGUGUGGAAAAACCAAUCUGAGAAGAACAACCUACCUUGUCCUUGAUGAAGCAGA,0.17 ratio
CAUUCUAGGCCAAGUGAGAACUCCUCAGUUCCUUGGGACAUCUCCACCUCUAAAGAGGAAAAUUUAUCCACAGUUGAAGAAGAAACUGAUUACAAAUCACCAUCAGCUGAUGACAAAGGG,0.114 ratio
CCCAUCAUUGAGUCUUCCUCAAAUAUCAAAUUUGGAUGUUUUCAAUGGUACUAUCCUGAAUUAGCUUUCCAGUUCAAAGAUGCAGGGCUAAGUAUCUUCAACAAUACAUGGAGUAACAUU,0.31 ratio
AGGCACUAUCUCAUUCAUACUGGUCAAAAGCCAUUUGAAUGUGAUGUGUGUCAUAAAACCUUUAGACAACUAGUUCAUCUGGAGAGGCAUCAACUAACUCAUAGUCUGCCUUUUAAAUGU,0.318 ratio
AGAGAAGAGAUUCUGGCAUUUAUUAAGUCUUGCCAACAUGAAUGUGGUGGAAUAAGUGCUAGUAUCGGACAUGAUCCUCAUCUUUUAUACACUCUUAGUGCUGUCCAGAUUCUUACGCUG,0.135 ratio
AUUAAAAAUGCUUGUCUACAAACAUCUUCCCUUGCGGUUCGUGUAAAUUCAUUAGUGUGCUUAGGAAAGAUUUUGGAAUACUUGGAUAAGUGGUUUGUACUUGAUGAUAUCCUACCCUUC,0.348 ratio
AUAAUGUUUGAAUCCUUCAAUGUUCCAGGCUUGUACAUUGCUGUGCAGGCUGUUCUUGCCUUAGCUGCAUCCUGGACCUCAAGACAAGUAGGAGAGCGGACGCUGACGGGUACAGUAAUA,0.266 ratio
GCUCACAUCGUAAAUGACUUUCUCUCCGAAACGCUAAAUAUUCUUUCCCGCAGGAGCUCAUAUCCUUAUUUUCCAUGACAGAUCUUAACGACAAUAUAUGCAAAAGAUAUAUAAAGAUGA,0.316 ratio
GCUGUGCAGUUCUUGCCUCCCUCACGGGGCGUCACCCCCAGCCCAGCUCCGUUGUACAUAAAUGCCUUGUGGCAGAGCUCCCGGUGAACUUCUGGAUCCCGUUUCUGAUGCAGACUCUUG,0.0928 ratio
CAGCUAGAAGAGCUGGCUUUUAGGGUCAUGCGUCUUCAGGAUGAGCUGGUCACCUUGCGUCUAGAGUGUACAAACCUGUACCGGAAGGGUCAUUUCACUUCACUUGAAUUGGUUCCACCC,0.149 ratio

# Set 2 — method: aptamer microarray, sandwich; molecule type: DNA with 2'F-ANA; sample: in vitro; tested at: 200 nM; with: Cy3 exosite-II aptamer, 400 nM; reading: higher = stronger binding; strand: GGTTGGTGTGGTTGG
# Target: Prothrombin, mature alpha-thrombin (F2, Homo sapiens, UniProt P00734)
# Notes: whole 15-mer aptamer, many near background
Modification,mean fluorescence intensity
2'F-ANA at 5 6 12 13 14,112 a.u.
2'F-ANA at 7 8 9 12 14,267 a.u.
2'F-ANA at 2 4 5 8 9 10 11,58.7 a.u.
2'F-ANA at 1 5 6 7 9 12 15,97.6 a.u.
2'F-ANA at 2 6 9 11,317 a.u.
2'F-ANA at 2 3 4 8 9 10 12 13 14 15,167 a.u.
2'F-ANA at 1 5 7 11 13 14,44.7 a.u.
2'F-ANA at 5 6 9 13 14 15,108 a.u.
2'F-ANA at 1 3 4 5 6 7 8 11 12 13,206 a.u.
2'F-ANA at 4 8 9 10 12 13 14,58.1 a.u.
2'F-ANA at 2 3 7 8 10 11 12 13 14,287 a.u.
2'F-ANA at 3 6 8 15,1050 a.u.
2'F-ANA at 1 2 3 5 7 9 11 12 13 15,67.5 a.u.
2'F-ANA at 4 6 11 13 15,155 a.u.
2'F-ANA at 1 3 4 5 6 7 9 13,58.8 a.u.
2'F-ANA at 1 4 5 6 8 10 13 15,56.8 a.u.
2'F-ANA at 1 2 6 7 9 11,109 a.u.
2'F-ANA at 2 4 6 7 9 10 11 13,64.8 a.u.
2'F-ANA at 2 8 9,528 a.u.

# Set 3 — cell line: yeast with cyclin F-Cln2 chimera; effect on: cell growth; mode: binder; method: competitive growth deep sequencing; molecule type: peptide; tested at: concentration not given; notes: peptide tiling library; reading: direction not given
Molecule,growth enrichment score
TTTTSPRTPPPLTVQD,-0.794
DSGFCLDSPGPLDSKE,-0.505
NEGVSNAVRRSLYIRD,1.34
KRRLDLETDHQY,3.78
SPPRGRRLFPPGPAGF,2.33
KSKHEEEEWTDDDLVE,0.414
LKGRRLVFDN,4.65
NSMKELNFSHLPSNSV,0.222
PFSENVSAVQKLDFSD,0.99
RRRIKLPESDSSED,1.04
KRNLLNEFDRII,2.25
KVKRRLDLDIDGLQKE,4.01
VKTKKRLNFDDK,2.77
RQVRRDLFAF,2.24
GFGFLLFICKLTF,1.41
SMTDFYHSKRRLIFSK,3.52
RVSGLLSWTLSRVLWL,2.38

# Set 4 — method: RNA Bind-n-Seq; molecule type: RNA; sample: in vitro; tested at: 365 nM; relative to: no-protein control; reading: higher = stronger binding
# Target: RNA binding protein fox-1 homolog 2, RRM domain, GST-SBP tag (RBFOX2, Homo sapiens, UniProt O43251-10, residues 100-194)
# Notes: natural RNA segment, single round, ends assumed
# All sequences stand within: GGGAGUUCUACAGUCCGACGAUC … UGGAAUUCUCGGGUGCCAA
# Target sequence (chain): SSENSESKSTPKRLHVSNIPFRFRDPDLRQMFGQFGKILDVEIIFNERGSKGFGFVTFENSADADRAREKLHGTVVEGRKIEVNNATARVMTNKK
Strand,RBNS enrichment (R)
GGACUGAACAGCGGCGGCUGUCCCUGUGCAUCCUUUGAUUACUCUCAUGCUGCAUUUACUGUUUACAUUUGUUUUAUUGUACAUAGGUUUGUAAACAUUAUUGCCUGAGA,0.389
UACUAAAAUAGGUUAAUAGUAAGCAAGGUGCCGGUGUACAGUCUCUAACUCGAUCAGUGUCUUUUCAGCACUUUGGAGCAUUUCCUUGGCUCAUCUAGUCUUCCUUUUGU,0.54
CAUCCCCGUGCUCUGGACCCUCCUGGGUUCCUAUCCCAGCCCCGCAGGACGCCGACCCUGCCUGGACGGCCCCGCCUGGACCGCCUGACCUCGGCCCUCCGGACCCGGCU,0.264
ACAUGCAAACAGCCUACUUCUUCAUGAACAAUUCCAUUUUAUUGACUGAACUUUUCUCAUAUUUUCACAUUUCUCAGUCCUGAAGAAUAAGGAAAACAAAGCGACGCCUA,0.409
CUCCUUAGGGAGUCUCUAAAACCGCUUCACUAUCAGCAACCAGGAGUACUAGAAGCCAGAGCACUCUUCCUCCUGGCUCCUCCCCAGUGCUCUAGUGCUGUAGGAACCAA,0.269
CUCACUCUCGAAUGCAAGUGGGAGAGGGAAAAUGACUCGGGACGCCAUUGUAACGGUUCCUGGAAGCUGGGCCCUCUCAUUGGCAUAUACAGUACUCCUCGCUGCAGGGC,1.6
ACUAUAUAAGUAAAGCAAAUAUAUUAGGCCAGGAUCUCACUGAGGAAUUUGUCUUGUCAUCUUUUAGAGUAAACUAAAAAUUGUAUAGUGUCUGCAAACACUACCCUACC,0.583
CCUAAAGAAACAAGCAAGAAAGUGAGGGCCAUCACUAGGGUUGGCUUUGGGGAGGGGAAAACUAAGGACUGCUUUUGCCAAAUGAUAUUUUUGAUAAUGUAAGGAAACAC,1.1
AUAUAGGAUCAGCUCCUUGACCUCUGAGGGGCAGGAGUGCUUCCUGGUGUGUGUAUUAGAAUCCCUUCCUGCCUUGUUUCAUGGCAGUGAAAUGCCUCUUGGUCCUGUCC,0.977
UUCAGUAAACAUGUGAAUCCUGAAACCCUAACAUUCUGAUUGCAAUCUCUACUCAUCCCUCCUUCCCUAGAGGAGCCUUUGAGGAGCCUCUUUCCUGGGGACAAAAGGCU,0.251
UGGGAAUAGAAGAUCCAUUUGUCUUUGUGUAGAGCAAGCACGUUUUCCACCUCACUGUCUCCAUCCUCCACCUCUGAGAUGGACACUUAAGAGACGGGGCAAAUGUGGAU,0.45
ACGGUUCGGGCUGGCGUGCAGCUCUCCCAGCCAGCCACGCUCUGCUCAGGCCUGGAAGUGAAAGCCGCCUCCUUCCCGUUAUGCCCCCCAUACAGGAGCCUCGGUUUUUC,0.429

# Some of these lines once more (set 3):
Molecule,growth enrichment score
RRRIKLPESDSSED,1.04
RVSGLLSWTLSRVLWL,2.38
NSMKELNFSHLPSNSV,0.222
KSKHEEEEWTDDDLVE,0.414
NEGVSNAVRRSLYIRD,1.34
DSGFCLDSPGPLDSKE,-0.505
RQVRRDLFAF,2.24
VKTKKRLNFDDK,2.77
GFGFLLFICKLTF,1.41
